Results pooled from the literature.
Parts stem from different laboratories: compare values within a part only.

Series 1
Target: Interferon regulatory factor 5, full length, phosphomimetic (IRF5, Homo sapiens, UniProt Q13568-2, residues 1-514, K96S/S451D/S453D/S456D/S462D)
Method: protein-binding microarray
Molecule type: double-stranded DNA, one strand shown
Matrix: in vitro
Concentration: 250 nM
Setting: 60-bp whole probe
Together with: salmon DNA 0.4 mg/ml
Relative to: random background probes
Direction: higher = stronger binding
Shared flanks, not repeated: GCCTAGCAC … GTCTTGATTCGCTTGACGCTGCTG
| Sequence | log fluorescence [z-score] |
| --- | --- |
| TCATTTTCGTTTTTATTATTGTGCTAG | 8.11 |
| TTAGATCTCAGTTTGGATTAGTGCTAG | 0.201 |
| GACGGTCTCCTTATCCTTACGTGCTAG | 0.0236 |
| TTAGGTTTCGGTATCGGTTCGTGCTAG | 11.1 |
| TCATATATTATATATTTAACTGTGCTA | 1.22 |
| TTAGGCCTGGGTCTCGGTTAGTGCTAG | -0.223 |
| GACGGACCGCTTCTCCTGACGTGCTAG | -0.544 |
| TTAGATAACGGGTTTCGATTAGTGCTA | 7.19 |
| GTAGGCTTCTATGTAGTTGAGTGCTAG | -0.107 |

Series 2
Target: Protein C-ets-1 (ETS1, Homo sapiens, UniProt P14921, residues 1-441, Y397A, full length assumed)
Method: protein-binding microarray
Molecule type: double-stranded DNA, one strand shown
Matrix: in vitro
Concentration: not given
Setting: k-mer, scored over probes, only values ≥0.25
Direction: higher = stronger binding
Construct (chain): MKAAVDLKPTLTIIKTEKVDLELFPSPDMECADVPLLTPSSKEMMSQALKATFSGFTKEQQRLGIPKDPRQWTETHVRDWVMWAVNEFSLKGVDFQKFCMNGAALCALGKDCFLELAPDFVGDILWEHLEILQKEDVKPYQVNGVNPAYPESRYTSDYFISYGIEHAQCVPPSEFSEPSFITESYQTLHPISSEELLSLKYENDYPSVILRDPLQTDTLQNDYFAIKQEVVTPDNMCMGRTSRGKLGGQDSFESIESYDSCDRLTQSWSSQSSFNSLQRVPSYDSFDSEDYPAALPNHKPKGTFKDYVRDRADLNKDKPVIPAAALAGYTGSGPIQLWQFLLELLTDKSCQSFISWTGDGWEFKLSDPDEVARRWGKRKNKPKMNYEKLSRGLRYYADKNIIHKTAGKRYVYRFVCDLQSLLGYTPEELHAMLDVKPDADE
| Sequence | E-score |
| --- | --- |
| ACAAAAAG | 0.256 |
| CATATCCG | 0.379 |
| ATCACATC | 0.261 |
| GGGCGGGA | 0.36 |
| CTTCCGCA | 0.319 |
| GTGTGTCA | 0.263 |
| GGAAGCAC | 0.251 |

Series 3
Target: RNA binding protein fox-1 homolog 2, RRM domain, GST-SBP tag (RBFOX2, Homo sapiens, UniProt O43251-10, residues 100-194)
Method: RNA Bind-n-Seq
Molecule type: RNA
Matrix: in vitro
Concentration: 365 nM
Setting: natural RNA segment, single round, ends assumed
Relative to: no-protein control
Direction: higher = stronger binding
| Sequence | RBNS enrichment (R) |
| --- | --- |
| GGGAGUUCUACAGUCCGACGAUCCUUUCCCAGUAACAUUCCUGAGUCUACUGUCCUUAUCUUAGUGUUGUACUUGCAUGACAUGGAUAUCUGGUAUCUGAGGACAAGUUCAUUCUUGUGUAUUUAAUAACAAAUGGAAUUCUCGGGUGCCAA | 6.53 |
| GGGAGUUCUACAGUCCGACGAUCACUUUCAAAGGGUGUAGGACUCCAUACUCAGUGACAGGGCAGGAAGAGCCAAAGAUAACCACAGCCACAGCCUGUGGAGACCAGGGUUGGAAGCCAGGUGCAGGGCCAGGUGGAAUUCUCGGGUGCCAA | 0.502 |
| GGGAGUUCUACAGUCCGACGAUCAGGCCUCUCCCUCACUGUCAGCACCAGCUGGUAAAGGUGACUGUGCAGAUGUGCAUUUUCCUUUUGGUAGAAAUGGUCCACAGCACUAACUGGUAAGGCUUAUUGUACAGUGGAAUUCUCGGGUGCCAA | 0.398 |
| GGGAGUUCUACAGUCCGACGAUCUUUGAGAUUGGAAUUAUUAGACAAAUCUUCCAAAGAUGCACUUUAGGAAGUUGCUAUUGGCCACAUAACUAGGCUUCCAUGUUGUACAGCAGUGAGUGGUUCCAUAUGGCUGGAAUUCUCGGGUGCCAA | 0.411 |
| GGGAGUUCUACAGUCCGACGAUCAGAGGUCGUGGUACUUUUCAACGUGGCAGAGGGCGCUUUAACUUCAAAAAAUCAGGUAGCAGUCCUAAAUGGACUCAUGACAAAUACCAAGGGGAUGGGAUUGUUGAAGAUGGAAUUCUCGGGUGCCAA | 0.515 |
| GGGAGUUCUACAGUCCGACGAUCGUAGUUUUUGAACAAGAAAAAGAACUUUGUAAAUCAUAUCAUUGGGAAAGUAUUUUCAAUAUUUAAAAAAAUUAAGCUGAAGAAAAACUGAUCUUUGAUCCUCCUGUGAAUGGAAUUCUCGGGUGCCAA | 0.697 |
| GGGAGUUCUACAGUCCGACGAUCCUGUCCGCUGUAUCUCCUCUGUGGGAGUAAACGCCACACUGUGUUUGUGAGUUCAGCACAGGGCCCAGAAGCUGCUGGUUUUAAAUAUUUACUUUCCCAGGAGGUGGGUUUGGAAUUCUCGGGUGCCAA | 0.449 |
| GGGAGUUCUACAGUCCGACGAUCGGCCCUCGACCUAACAUCUGUGGCAUCUGCGGGAAGAGCUUUGGACGAGGCUCGACCCUGAUCCAGCACCAGCGCAUCCAUACCGGCGAGAAGCCUUACAAAUGUGAGGUUGGAAUUCUCGGGUGCCAA | 0.579 |

Further values, each from its own experiment
| Substance | target | test | test system | setting | how to read | quantity | result |
| --- | --- | --- | --- | --- | --- | --- | --- |
| PhoQ, residues 284 288 289 292 302 303 TAVSDG | PhoP, residues 12 14 15 18 19 VHSCL (Escherichia coli, UniProt P23836) | Sort-seq, measured: YFP reporter | E. coli | PhoQ-PhoP variant library, together with: 10 µM Mg2+ | relative to: high Mg2+ state, higher = stronger signaling | fold induction | 10.5 |

Repeated from above (series 2):
| Sequence | E-score |
| --- | --- |
| GGGCGGGA | 0.36 |
| CTTCCGCA | 0.319 |
| GTGTGTCA | 0.263 |
